Results pooled from the literature.
Numbered parts are unrelated; each lists some results of a single study.
Sequence of UniProt P00519 (whole entry, unmodified, looked up): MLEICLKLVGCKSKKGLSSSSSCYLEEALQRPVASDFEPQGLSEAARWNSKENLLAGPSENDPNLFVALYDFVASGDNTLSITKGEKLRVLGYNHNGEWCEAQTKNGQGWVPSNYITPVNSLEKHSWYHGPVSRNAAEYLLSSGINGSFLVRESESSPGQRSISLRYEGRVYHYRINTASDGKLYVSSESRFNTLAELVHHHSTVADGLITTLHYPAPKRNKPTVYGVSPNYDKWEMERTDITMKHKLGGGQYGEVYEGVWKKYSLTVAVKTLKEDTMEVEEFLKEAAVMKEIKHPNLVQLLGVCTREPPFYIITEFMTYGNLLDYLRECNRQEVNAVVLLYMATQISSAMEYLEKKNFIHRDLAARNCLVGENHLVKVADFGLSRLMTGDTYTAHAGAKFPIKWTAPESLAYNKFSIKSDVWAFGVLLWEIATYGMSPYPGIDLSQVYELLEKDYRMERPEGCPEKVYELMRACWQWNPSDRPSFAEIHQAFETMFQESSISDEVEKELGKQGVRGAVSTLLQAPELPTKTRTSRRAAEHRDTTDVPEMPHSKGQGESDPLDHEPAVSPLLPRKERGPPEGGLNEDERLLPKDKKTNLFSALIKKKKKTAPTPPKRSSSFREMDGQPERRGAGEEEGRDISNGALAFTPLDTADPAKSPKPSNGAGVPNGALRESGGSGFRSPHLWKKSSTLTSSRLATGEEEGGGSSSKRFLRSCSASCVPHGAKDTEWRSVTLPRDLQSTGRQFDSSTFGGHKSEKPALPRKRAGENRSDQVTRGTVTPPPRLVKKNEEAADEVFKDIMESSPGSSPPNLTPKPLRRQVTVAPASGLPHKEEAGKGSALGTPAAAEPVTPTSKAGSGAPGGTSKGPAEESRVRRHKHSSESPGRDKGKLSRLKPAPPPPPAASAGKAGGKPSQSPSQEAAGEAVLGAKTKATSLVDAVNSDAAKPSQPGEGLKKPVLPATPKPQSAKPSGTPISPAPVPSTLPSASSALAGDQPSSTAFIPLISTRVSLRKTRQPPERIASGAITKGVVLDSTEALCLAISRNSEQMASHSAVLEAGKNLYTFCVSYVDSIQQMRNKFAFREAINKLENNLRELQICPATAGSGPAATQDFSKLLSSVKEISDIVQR

Block 1
SMILES: CC(C)n1cnc(-c2ccc(F)cc2)c1-c1ncc(C(=O)Nc2ccc(N3CCN(C)CC3)cc2)[nH]1
Method: phase 2a trial
Host: idiopathic pulmonary fibrosis patients
| dose | setting | patients with aortic valve incompetence |
| --- | --- | --- |
| 30 mg once daily | adverse event grade 3 | 0% |
| dose not given | adverse event grade 4, all dose arms pooled | 0% |
| 30 mg once daily | adverse event grade 5 | 0% |
| dose not given | adverse event grade 2, all dose arms pooled | 0% |

Block 2
Target: Tyrosine-protein kinase JAK2 (JAK2, Homo sapiens, UniProt O60674)
Sequence of UniProt O60674 (whole entry, looked up): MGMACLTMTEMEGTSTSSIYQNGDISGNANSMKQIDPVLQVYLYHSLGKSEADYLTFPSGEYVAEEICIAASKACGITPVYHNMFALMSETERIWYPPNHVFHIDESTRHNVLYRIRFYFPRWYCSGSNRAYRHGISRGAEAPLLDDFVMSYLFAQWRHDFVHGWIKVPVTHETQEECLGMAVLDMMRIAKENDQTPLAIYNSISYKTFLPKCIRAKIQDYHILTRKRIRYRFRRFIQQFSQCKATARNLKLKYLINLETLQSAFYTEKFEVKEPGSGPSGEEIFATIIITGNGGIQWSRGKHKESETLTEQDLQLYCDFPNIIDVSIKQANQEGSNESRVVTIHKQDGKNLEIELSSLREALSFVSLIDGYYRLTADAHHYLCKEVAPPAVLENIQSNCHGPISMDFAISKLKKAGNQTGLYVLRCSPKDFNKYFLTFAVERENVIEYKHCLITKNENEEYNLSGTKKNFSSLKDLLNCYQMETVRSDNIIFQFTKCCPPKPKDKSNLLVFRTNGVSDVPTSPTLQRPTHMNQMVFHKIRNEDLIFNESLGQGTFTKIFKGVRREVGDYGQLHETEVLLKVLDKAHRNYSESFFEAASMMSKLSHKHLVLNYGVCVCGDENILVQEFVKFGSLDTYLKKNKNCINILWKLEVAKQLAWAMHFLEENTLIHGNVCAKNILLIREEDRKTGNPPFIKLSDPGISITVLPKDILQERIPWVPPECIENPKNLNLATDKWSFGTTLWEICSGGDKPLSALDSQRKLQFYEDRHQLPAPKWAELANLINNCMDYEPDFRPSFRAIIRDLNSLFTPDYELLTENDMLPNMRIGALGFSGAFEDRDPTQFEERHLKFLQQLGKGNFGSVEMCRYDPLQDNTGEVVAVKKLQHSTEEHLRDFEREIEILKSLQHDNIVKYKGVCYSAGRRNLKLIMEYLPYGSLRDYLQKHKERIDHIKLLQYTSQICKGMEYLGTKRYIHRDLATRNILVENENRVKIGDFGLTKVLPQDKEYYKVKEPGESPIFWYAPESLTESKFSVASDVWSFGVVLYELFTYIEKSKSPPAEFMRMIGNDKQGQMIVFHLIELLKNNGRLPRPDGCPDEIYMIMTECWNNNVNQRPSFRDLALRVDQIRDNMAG
Read-out: enzyme activity
Action: inhibitor
Tested at: 0.5 µM
Relative to: control
| SMILES | remaining activity |
| --- | --- |
| CCc1[nH]c(-c2ccc(OC)cc2)nc1-c1ccncc1 | 96.7% |
| Nc1nccc(-c2c(-c3ccc(F)cc3)ncn2C2CCNCC2)n1 | 99.6% |
| NC(=O)c1ccc(N(C(N)=O)c2c(F)cccc2F)nc1-c1ccc(F)cc1F | 107% |
| Cc1cc(Nc2nc(-c3ccccc3)nc3ccccc23)n[nH]1 | 52.6% |
| Oc1ccc(Nc2nc(-c3ccc(Cl)cc3)cs2)cc1 | 101% |
| CC(=O)c1ccc(N2CCOCC2)cc1O | 93.6% |
| O=C1NC(=O)C(c2c[nH]c3ccccc23)=C1c1c[nH]c2ccccc12 | 100% |
| CC#CC(=O)Nc1cc2c(Nc3ccc(F)c(Cl)c3)ncnc2cn1 | 97.4% |

Block 3
Method: logD(dd/w) and ALogP
Setting: JT method
| Structure (SMILES) | lipophilic permeability efficiency |
| --- | --- |
| CC(C)C[C@@H]1NC(=O)[C@H](CC(C)C)NC(=O)[C@H](CC(C)C)NC(=O)[C@H](C(C)C)NC(=O)[C@@H](Cc2cscn2)NC(=O)[C@H](Cc2cscn2)NC(=O)[C@H](CCC(=O)N2CCCC2)NC1=O | 2.1 |
| CC(C)C[C@@H]1NC(=O)[C@H](Cc2cscn2)NC(=O)[C@H](CCC(=O)N2CCCC2)NC(=O)[C@@H](CCC(=O)N2CCCC2)NC(=O)[C@H](CC(C)C)NC(=O)[C@@H](CC(C)C)NC(=O)[C@H](CC(C)C)NC1=O | 1.92 |
| CC(C)C[C@@H]1NC(=O)[C@H](Cc2cscn2)NC(=O)[C@H](C)NC(=O)[C@@H](CC(C)C)NC(=O)[C@@H](CCC(=O)N2CCCC2)NC(=O)[C@H](CC(C)C)NC(=O)[C@@H](CC(C)C)NC1=O | 2.6 |
| CC(C)C[C@@H]1NC(=O)[C@H](C)NC(=O)[C@@H](C(C)C)NC(=O)[C@H](C(C)C)NC(=O)[C@H](CC(C)C)NC(=O)[C@@H](CC(C)C)NC(=O)[C@H](CC(C)C)NC1=O | 2.32 |
| CC(C)C[C@@H]1NC(=O)[C@H](CC(C)C)NC(=O)[C@@H](CC(C)C)NC(=O)[C@H](C(C)C)NC(=O)[C@@H](CCC(=O)N2CCCC2)NC(=O)[C@H](Cc2cscn2)NC(=O)[C@H](C)NC1=O | 1.6 |
| CC(C)C[C@@H]1NC(=O)[C@H](C)NC(=O)[C@H](Cc2cscn2)NC(=O)[C@@H](CC(C)C)NC(=O)[C@H](C(C)C)NC(=O)[C@H](CC(C)C)NC(=O)[C@@H](CC(C)C)NC1=O | 2 |
| CC(C)C[C@@H]1NC(=O)[C@H](CC(C)C)NC(=O)[C@@H](C(C)C)NC(=O)[C@H](C(C)C)NC(=O)[C@H](C(C)C)NC(=O)[C@H](Cc2cscn2)NC(=O)[C@H](C)NC1=O | 1.95 |
| CC(C)C[C@@H]1NC(=O)[C@H](Cc2cscn2)NC(=O)[C@H](Cc2cscn2)NC(=O)[C@H](C)NC(=O)[C@@H](CCC(=O)N2CCCC2)NC(=O)[C@H](CC(C)C)NC(=O)[C@@H](CC(C)C)NC1=O | 2.23 |

Single results of other studies
| SMILES | target | read-out | method | tested at | measurement | value |
| --- | --- | --- | --- | --- | --- | --- |
| Cn1cncc1[C@](O)(COc1ccc(C#N)cc1-c1ccc(OC(F)(F)F)cc1)c1ccc(C#N)cc1 | Tyrosine-protein kinase ABL1, non-phosphorylated (ABL1, Homo sapiens, UniProt P00519, F317I) | binding | competition with immobilised ligand | 1 µM | remaining binding | 98% |
